Assay results of several laboratories.
Parts stem from different laboratories: compare values within a part only.
Chain of UniProt P35368 (whole entry, looked up): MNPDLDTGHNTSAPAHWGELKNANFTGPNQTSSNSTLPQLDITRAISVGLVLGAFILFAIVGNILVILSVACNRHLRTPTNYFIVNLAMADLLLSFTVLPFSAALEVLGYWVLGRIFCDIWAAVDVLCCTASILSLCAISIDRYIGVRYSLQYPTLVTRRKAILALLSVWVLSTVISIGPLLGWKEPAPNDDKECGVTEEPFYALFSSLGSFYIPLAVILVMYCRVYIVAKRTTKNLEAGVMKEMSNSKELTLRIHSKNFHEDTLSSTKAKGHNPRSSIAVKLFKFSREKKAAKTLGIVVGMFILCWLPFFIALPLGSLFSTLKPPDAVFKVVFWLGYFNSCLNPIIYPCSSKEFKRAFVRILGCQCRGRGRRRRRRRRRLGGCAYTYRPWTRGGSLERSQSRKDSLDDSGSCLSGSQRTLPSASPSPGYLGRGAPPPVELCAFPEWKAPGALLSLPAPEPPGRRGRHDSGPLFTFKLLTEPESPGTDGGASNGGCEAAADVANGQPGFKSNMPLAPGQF
Chain of UniProt Q04759 (whole entry, looked up): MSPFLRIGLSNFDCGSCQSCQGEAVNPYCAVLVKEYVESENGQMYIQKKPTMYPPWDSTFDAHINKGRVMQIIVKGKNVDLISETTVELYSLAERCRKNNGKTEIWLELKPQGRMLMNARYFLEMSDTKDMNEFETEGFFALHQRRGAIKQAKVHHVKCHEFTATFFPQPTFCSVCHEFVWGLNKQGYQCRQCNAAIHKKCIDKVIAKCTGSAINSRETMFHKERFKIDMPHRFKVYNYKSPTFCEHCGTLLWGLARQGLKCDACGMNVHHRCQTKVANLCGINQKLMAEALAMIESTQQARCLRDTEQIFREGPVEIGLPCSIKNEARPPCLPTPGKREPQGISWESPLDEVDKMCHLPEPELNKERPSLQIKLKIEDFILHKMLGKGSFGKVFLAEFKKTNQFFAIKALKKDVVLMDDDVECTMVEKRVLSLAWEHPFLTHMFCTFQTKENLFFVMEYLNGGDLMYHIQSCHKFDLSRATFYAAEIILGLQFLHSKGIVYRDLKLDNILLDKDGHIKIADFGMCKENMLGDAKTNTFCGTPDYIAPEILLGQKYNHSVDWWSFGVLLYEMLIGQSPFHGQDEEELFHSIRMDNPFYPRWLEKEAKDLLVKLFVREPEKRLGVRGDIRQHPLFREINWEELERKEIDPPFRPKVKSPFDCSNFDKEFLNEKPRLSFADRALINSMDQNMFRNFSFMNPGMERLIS

Sample 1
Target: Centromere-binding protein 1, full length, N-terminal tag (CBF1, Saccharomyces cerevisiae, UniProt P17106, residues 1-351)
Chain of UniProt P17106 (whole entry, looked up): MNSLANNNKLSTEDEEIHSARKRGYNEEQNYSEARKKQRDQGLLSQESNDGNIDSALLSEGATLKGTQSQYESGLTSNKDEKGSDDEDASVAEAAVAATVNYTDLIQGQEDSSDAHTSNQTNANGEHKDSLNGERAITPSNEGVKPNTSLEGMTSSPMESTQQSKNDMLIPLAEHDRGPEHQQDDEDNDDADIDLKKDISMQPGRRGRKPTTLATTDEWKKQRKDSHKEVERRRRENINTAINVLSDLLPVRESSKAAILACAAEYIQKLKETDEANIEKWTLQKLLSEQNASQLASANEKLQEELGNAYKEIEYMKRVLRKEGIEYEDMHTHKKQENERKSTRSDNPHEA
Method: protein-binding microarray
Molecule type: double-stranded DNA, one strand shown
Medium: in vitro
Concentration: 0.8 µM
Notes: whole 60-bp probe, no competitor
Direction: higher = stronger binding
Strand	fluorescence intensity
CTACAGATGAAGTGCCAGGTGGCGTACCAGGACTTCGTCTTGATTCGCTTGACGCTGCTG	500 a.u.
CTACGCTGAGCGCGCCACGTTAAAAGCTCGAATTTCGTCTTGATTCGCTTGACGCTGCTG	503 a.u.
CTATATTTATTTATACGTGTGATTTCGTCTTGCTTCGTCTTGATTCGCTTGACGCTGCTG	559 a.u.
CTATTTCTATTTCACCACGAACAACATTATGTCTTCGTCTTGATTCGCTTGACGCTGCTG	589 a.u.
CTAGTTCACATTGATGAGCACGTGAAAATCTTATTCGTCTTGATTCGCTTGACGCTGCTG	6860 a.u.
CTAGATCAATTCAACAACACCACCAGCAGCTCTTTCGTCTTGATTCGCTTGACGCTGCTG	558 a.u.
CCTAACTACTATAACTACGTGCCATAGCTTCGTACAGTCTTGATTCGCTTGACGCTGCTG	654 a.u.
GAATTGCTATAGCGTAACGTGCGTCACTAGTCTTAGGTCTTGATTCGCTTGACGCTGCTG	576 a.u.

Sample 2
Target: RING finger protein unkempt homolog, zinc fingers 1-6, GST-SBP tag (UNK, Homo sapiens, UniProt Q9C0B0, residues 30-357)
Chain of UniProt Q9C0B0 (30-357, looked up): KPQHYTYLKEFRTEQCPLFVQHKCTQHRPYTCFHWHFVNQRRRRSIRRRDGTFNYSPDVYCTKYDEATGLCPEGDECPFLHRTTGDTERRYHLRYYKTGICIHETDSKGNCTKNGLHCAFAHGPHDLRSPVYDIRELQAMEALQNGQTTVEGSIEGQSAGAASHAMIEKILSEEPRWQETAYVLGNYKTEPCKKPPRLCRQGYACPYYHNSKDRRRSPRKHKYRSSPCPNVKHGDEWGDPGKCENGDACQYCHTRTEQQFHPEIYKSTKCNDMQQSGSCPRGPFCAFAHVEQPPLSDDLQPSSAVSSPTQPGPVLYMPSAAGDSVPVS
Method: RNA Bind-n-Seq
Molecule type: RNA
Medium: in vitro
Concentration: not given
Notes: RNA with constant flanks, human and mouse sites, ends assumed
Reference: input RNA pool
Direction: higher = stronger binding
Strand	bound/input enrichment
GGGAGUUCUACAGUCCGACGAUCGGUGCCAACCUGAAUGGAAUCAUCUACUUACUGGGGGGUGAGGAGAAUGAUCUAGACUUCUUUACCAAACCUUCCCGACUGAUCCAGUGCUUUGACACAGAAACUGACAAGUGCCACGUGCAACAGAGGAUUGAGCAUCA	0.103 ratio
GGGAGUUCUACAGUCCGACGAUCAUUGGAAAAUUUGACAAUUUUGAUUCUCACUGGUAUGUUUAAAAACUGAAUAAAAGGAAUAGAAUUUUUUUUUGAUAAAGGAUCACAAAACAAUUCUAAAACCUAACUGUUUUUACCAUUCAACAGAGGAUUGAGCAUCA	0.374 ratio
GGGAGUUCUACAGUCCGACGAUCAGUGCCCUCUUUUGUUAAUUCCAACUCUUCCUCAGCCUCUUCACACUGGCAUGUCCUGCACAGCAGUGUGUAACUAUCAGUGGUAGAAUGAAAAGAACAACCUACAACAUAGGUAUUUUGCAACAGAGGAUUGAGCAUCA	0.294 ratio
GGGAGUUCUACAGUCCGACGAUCCAGCAUGUCAUAGAAACCUUGAUUGGCAAAAAGCAACAGAUAUCUCUUGCAACACAAAUGGUUAGAAUGAUUUUGAAGAUUGAUGACAUUCGUAAGCCUGGAGAAUCUGAAGAAUGAAGACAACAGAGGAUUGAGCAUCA	0.374 ratio
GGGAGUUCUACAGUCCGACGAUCGAGAAAAAAAAUUACUUAUUUUCUUGCCCCAUACAUACCUUGAGGCGAGCAAAAAAAUUAAAUUUUAACCAUGAGGGAAAUCGUGCACAUCCAGGCUGGUCAGUGUGGCAACCAGAUCGGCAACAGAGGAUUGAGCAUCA	0.412 ratio
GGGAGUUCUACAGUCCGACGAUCGUGAAGGCUGAGAUACCAUUGAAUGAGCAAACCACUUUAAGUAAGGAGAAUUACCUGUUCACUAGAGGCCAAACAUUUGAUGAAAAGACCCUAGCCAGAGAUUUAAUUCAGGCAGCACAGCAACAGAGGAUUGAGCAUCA	0.289 ratio
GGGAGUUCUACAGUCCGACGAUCGAUCUUGGACUUGAUAUUGGUGCCCAGGGAGAACCCCUUGGAUAUCGCCAGGAUGAUCCUAGCUAUCGUUCUUUUCACUCUGGUGGAUAUGGCCAGGAUGCCUUGGGUAUGGACCCCAUGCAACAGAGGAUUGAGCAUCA	0.152 ratio
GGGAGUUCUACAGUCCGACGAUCUUAGGUCAGCCUGCCCUCUCUCUCCCAGACCACAUAAGCCUCCCUGUGCUCACUGUGCCCCAAAGUGCAAUUACUCACACUCAGUGAGGACACCAGGCAGCUACAGACUGCCCACUAAGCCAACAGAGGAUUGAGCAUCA	0.947 ratio

Further values, each from its own experiment
Substance	tested on	assay	system	conditions	how to read	measurement	value
NDUFS4 (Homo sapiens, UniProt O43181)	NDUFS3 (Homo sapiens, UniProt O75489)	cross-linking MS	cells	with: BSPNO	–	cross-linked residues	K98 to K232
Oc1cccc(-c2nc(N3CCOCC3)c3oc4ncccc4c3n2)c1	PRKCQ (Homo sapiens, UniProt Q04759)	enzyme activity, inhibitor	–	0.5 µM	reference: control	remaining activity	105%
CN(C)CC#Cc1ccc(OCCCc2sc(N3CCc4cccc(C(=O)Nc5nc6ccccc6s5)c4C3)nc2C(=O)O)c(F)c1	ADRA1B (Homo sapiens, UniProt P35368)	ligand displacement	–	10 µM	–	inhibition	0.97%

Excerpt of the above (sample 1):
Strand	fluorescence intensity
CTAGTTCACATTGATGAGCACGTGAAAATCTTATTCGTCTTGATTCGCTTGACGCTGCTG	6860 a.u.
CTACGCTGAGCGCGCCACGTTAAAAGCTCGAATTTCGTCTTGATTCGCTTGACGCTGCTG	503 a.u.
CTATTTCTATTTCACCACGAACAACATTATGTCTTCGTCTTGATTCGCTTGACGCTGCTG	589 a.u.
